Assay results of several laboratories.
Each line is one published result; not all experiments were run side by side.
Organism: Klebsiella pneumoniae

CN(C)[C@@H]1C(O)=C(C(N)=O)C(=O)[C@@]2(O)C(O)=C3C(=O)c4c(cnc(-c5ccccc5)c4O)C[C@H]3C[C@@H]12.Cl.Cl
MIC (tet(A)-carrying): > 32 µg/mL

CC(=O)N[C@@H](CCCCN)C(=O)N[C@@H](CC(C)C)C(=O)N[C@@H](CC(C)C)C(=O)N[C@@H](CCCCN)C(=O)N[C@@H](CC(C)C)C(=O)N[C@@H](CC(C)C)C(=O)N[C@@H](CCCCN)C(=O)N[C@@H](CCCCN)C(=O)N1CCC[C@H]1C(=O)N[C@@H](CC(C)C)C(=O)N[C@@H](CCCCN)C(=O)N[C@@H](CC(C)C)C(=O)N[C@@H](CC(C)C)C(=O)N[C@@H](CCCCN)C(=O)N[C@@H](CCCCN)C(N)=O
MIC (broth microdilution; ATCC 700603; 18 h, 37 °C, compound alone): > 80 µM

CO[C@@]1(NC(=O)Cc2cccs2)C(=O)N2C(C(=O)O)=C(COC(N)=O)CS[C@@H]21
MIC (broth microdilution; ATCC 43816 acrAB overexpressor; with: colistin 0.5 mg/L): 4 µg/mL

CCCCCCCC(=O)N[C@@H](CCCCN)C(=O)N[C@@H](CCCCN)C(=O)N[C@@H](C)C(=O)N[C@@H](C)C(=O)N[C@@H](CCCCN)C(=O)N[C@@H](C)C(=O)N[C@@H](C)C(=O)N[C@@H](CCCCN)C(=O)N[C@@H](CCCCN)C(=O)N1CCC[C@H]1C(=O)N[C@@H](C)C(=O)N[C@@H](CCCCN)C(=O)N[C@@H](C)C(=O)N[C@@H](C)C(=O)N[C@@H](CCCCN)C(N)=O
MIC (broth microdilution; ATCC 700603; 18 h, 37 °C, compound alone): > 80 µM

Cc1nc(Cl)c2c(c1O)C(=O)C1=C(O)[C@]3(O)C(=O)C(C(N)=O)=C(O)[C@@H](N(C)C)[C@@H]3C[C@@H]1C2.Cl
MIC (tet(A)-carrying): > 32 µg/mL

CC[C@H](C)[C@H](N)C(=O)N[C@@H](CC(C)C)C(=O)NCC(=O)N[C@H](CCCNC(=N)N)C(=O)N[C@H](C(=O)N[C@@H](Cc1c[nH]c2ccccc12)C(=O)N[C@@H](CCCCN)C(=O)NCC(=O)N[C@H](C(=O)N[C@@H](CCCCN)C(=O)N[C@@H](CC(=O)O)C(=O)N[C@H](C(=O)N[C@@H](CC(C)C)C(N)=O)[C@@H](C)CC)[C@@H](C)CC)[C@@H](C)CC
MIC (broth microdilution; ATCC 27736, Mueller-Hinton broth; 16 h, 37 °C): 50 µM

CC[C@H](C)[C@H](NC(=O)[C@H](Cc1ccccc1)NC(=O)[C@@H](NC(=O)[C@H](Cc1ccccc1)NC(=O)[C@@H]1CCCN1C(=O)[C@@H](NC(=O)[C@H](C)N)[C@@H](C)CC)[C@@H](C)CC)C(=O)N[C@@H](Cc1c[nH]c2ccccc12)C(=O)N[C@@H](CCCNC(=N)N)C(=O)N[C@@H](CC(C)C)C(=O)N[C@@H](CC(C)C)C(=O)N[C@@H](CCCNC(=N)N)C(=O)N[C@@H](CCCCN)C(=O)NCC(N)=O
MIC (broth microdilution; ATCC 700603; 18 h, 37 °C): 15 µM

CC[C@H](C)[C@H](NC(=O)[C@H](CC(C)C)NC(=O)[C@H](CCCNC(=N)N)NC(=O)[C@H](CC(C)C)NC(=O)[C@@H](NC(=O)[C@@H](NC(=O)[C@H](CCCNC(=N)N)NC(=O)[C@@H](NC(=O)[C@@H](NC(=O)[C@H](CCCNC(=N)N)NC(=O)[C@H](CCCNC(=N)N)NC(=O)[C@H](CCCNC(=N)N)NC(=O)[C@H](CO)NC(=O)[C@@H](N)CCCNC(=N)N)[C@@H](C)CC)[C@@H](C)CC)[C@@H](C)CC)C(C)C)C(=O)N[C@@H](CCCNC(=N)N)C(=O)N[C@@H](CCCNC(=N)N)C(=O)N[C@@H](CO)C(=O)N[C@@H](C)C(=O)N[C@@H](CCCNC(=N)N)C(N)=O
MIC (broth microdilution; ATCC 13883; highest value reported): 4 µM

CN(C)c1cc(NC(=O)CNC(C)(C)C)c(O)c2c1C[C@H]1C[C@H]3[C@H](N(C)C)C(O)=C(C(N)=O)C(=O)[C@@]3(O)C(O)=C1C2=O
MIC (broth microdilution; parental, KPC-33): 2 µg/mL

CC[C@H](C)[C@H](NC(=O)[C@H](CCCCN)NC(=O)[C@H](CCCNC(=N)N)NC(=O)[C@H](CCCNC(=N)N)NC(=O)[C@H](CC(C)C)NC(=O)[C@H](CCCCN)NC(=O)[C@H](CCCCN)NC(=O)[C@H](Cc1ccccc1)NC(=O)[C@H](CC(C)C)NC(=O)CNC(=O)[C@H](CCCNC(=N)N)NC(=O)[C@@H](N)CCCNC(=N)N)C(=O)N[C@@H](CCCCN)C(=O)N[C@@H](CCCCN)C(=O)NCC(=O)N[C@@H](Cc1ccccc1)C(=O)N[C@@H](CCCCN)C(=O)N[C@@H](CCCCN)C(=O)N[C@H](C(=O)N[C@@H](Cc1ccccc1)C(=O)N[C@@H](CCCCN)C(=O)N[C@@H](CCCNC(=N)N)C(=O)N[C@@H](CC(C)C)C(=O)N1CCC[C@H]1C(=O)N1CCC[C@H]1C(=O)N[C@H](C(=O)NCC(=O)N[C@H](C(=O)NCC(=O)N[C@H](C(=O)N[C@@H](CO)C(=O)O)C(C)C)C(C)C)C(C)C)[C@@H](C)CC
MIC (ATCC 43823; highest concentration 50 µM): 1.29 µM

Excerpt of the above:
CC[C@H](C)[C@H](N)C(=O)N[C@@H](CC(C)C)C(=O)NCC(=O)N[C@H](CCCNC(=N)N)C(=O)N[C@H](C(=O)N[C@@H](Cc1c[nH]c2ccccc12)C(=O)N[C@@H](CCCCN)C(=O)NCC(=O)N[C@H](C(=O)N[C@@H](CCCCN)C(=O)N[C@@H](CC(=O)O)C(=O)N[C@H](C(=O)N[C@@H](CC(C)C)C(N)=O)[C@@H](C)CC)[C@@H](C)CC)[C@@H](C)CC
MIC (broth microdilution; ATCC 27736, Mueller-Hinton broth; 16 h, 37 °C): 50 µM

CC[C@H](C)[C@H](NC(=O)[C@H](CC(C)C)NC(=O)[C@H](CCCNC(=N)N)NC(=O)[C@H](CC(C)C)NC(=O)[C@@H](NC(=O)[C@@H](NC(=O)[C@H](CCCNC(=N)N)NC(=O)[C@@H](NC(=O)[C@@H](NC(=O)[C@H](CCCNC(=N)N)NC(=O)[C@H](CCCNC(=N)N)NC(=O)[C@H](CCCNC(=N)N)NC(=O)[C@H](CO)NC(=O)[C@@H](N)CCCNC(=N)N)[C@@H](C)CC)[C@@H](C)CC)[C@@H](C)CC)C(C)C)C(=O)N[C@@H](CCCNC(=N)N)C(=O)N[C@@H](CCCNC(=N)N)C(=O)N[C@@H](CO)C(=O)N[C@@H](C)C(=O)N[C@@H](CCCNC(=N)N)C(N)=O
MIC (broth microdilution; ATCC 13883; highest value reported): 4 µM
